Measurements collected from several papers.
Every numbered part comes from another study and shows a few of its results, in no order. Positions count from the first letter of the parent shown.

Sample 1
Target: Sal-like protein 4, full length isoform B (SALL4, Homo sapiens, UniProt Q9UJQ4-2, residues 1-616)
Technique: universal PBM
Molecule type: double-stranded DNA, one strand shown
Sample: in vitro
Concentration: not given
Notes: 8-mer, flanks averaged, mean of replicates
Reading: higher = stronger binding
Endpoint: E-score
Construct (chain): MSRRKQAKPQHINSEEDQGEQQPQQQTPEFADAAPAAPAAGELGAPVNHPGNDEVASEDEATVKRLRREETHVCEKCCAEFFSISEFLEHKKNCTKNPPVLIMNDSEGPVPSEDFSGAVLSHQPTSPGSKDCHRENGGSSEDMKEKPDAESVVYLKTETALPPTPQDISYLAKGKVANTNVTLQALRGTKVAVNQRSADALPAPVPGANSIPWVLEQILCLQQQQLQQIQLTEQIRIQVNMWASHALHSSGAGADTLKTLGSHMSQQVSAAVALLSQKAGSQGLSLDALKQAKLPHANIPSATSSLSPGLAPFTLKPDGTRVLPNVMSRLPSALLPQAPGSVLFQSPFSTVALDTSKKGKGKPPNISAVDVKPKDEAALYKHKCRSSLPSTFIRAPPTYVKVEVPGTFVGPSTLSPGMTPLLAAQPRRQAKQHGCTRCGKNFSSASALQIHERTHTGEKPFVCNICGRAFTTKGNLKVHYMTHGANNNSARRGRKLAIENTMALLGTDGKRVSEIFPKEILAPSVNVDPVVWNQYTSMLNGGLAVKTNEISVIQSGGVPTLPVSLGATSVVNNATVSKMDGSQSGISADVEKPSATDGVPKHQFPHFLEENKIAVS
Sequence = CAAACACC; value = -0.0426
Sequence = TGCCTTAA; value = -0.0369
Sequence = ATCAGCAT; value = 0.167
Sequence = TGGACCAA; value = 0.0945
Sequence = TAACGTCA; value = 0.255
Sequence = CACTGATG; value = -0.218
Sequence = ATTCGCGA; value = -0.00711
Sequence = TCAGAGGA; value = -0.0396

Sample 2
Target: vanadate, free oxyanion
Technique: microfluidic competitive inhibition
Sample: in vitro, cell-free expressed
Concentration: not given
Notes: derived from inhibition constants, unchanged parent 676 nM
Reading: lower = stronger binding
Endpoint: oxyanion analog dissociation constant
Parent: PafA, mature enzyme, eGFP fusion (Elizabethkingia meningoseptica, UniProt Q9KJX5); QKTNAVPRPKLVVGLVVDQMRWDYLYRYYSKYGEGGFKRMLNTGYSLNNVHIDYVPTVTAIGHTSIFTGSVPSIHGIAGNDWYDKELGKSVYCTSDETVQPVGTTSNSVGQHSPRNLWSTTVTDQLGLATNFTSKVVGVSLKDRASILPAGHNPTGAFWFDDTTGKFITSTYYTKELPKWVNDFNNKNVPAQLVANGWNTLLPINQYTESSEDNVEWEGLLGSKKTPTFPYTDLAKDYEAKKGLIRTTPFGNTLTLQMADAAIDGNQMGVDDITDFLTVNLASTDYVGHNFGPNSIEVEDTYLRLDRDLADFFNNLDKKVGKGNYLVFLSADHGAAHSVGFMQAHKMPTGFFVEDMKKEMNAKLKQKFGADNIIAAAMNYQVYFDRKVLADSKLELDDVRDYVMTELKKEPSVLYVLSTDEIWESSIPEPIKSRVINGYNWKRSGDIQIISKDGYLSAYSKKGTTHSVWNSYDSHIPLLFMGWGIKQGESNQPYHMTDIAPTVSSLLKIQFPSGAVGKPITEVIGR
Substitution = V339G; value = 633 nM
Substitution = A500G; value = 571 nM
Substitution = V102G; value = 1.02 µM
Substitution = F37V; value = 634 nM
Substitution = G340A; value = 784 nM
Substitution = S73V; value = 1.61 µM
Substitution = E406G; value = 785 nM
Substitution = G103V; value = 762 nM
Substitution = E522V; value = 636 nM
Substitution = V71A; value = 557 nM
Substitution = V136A; value = 512 nM
Substitution = E239V; value = 534 nM
Substitution = P101V; value = 2.44 µM
Substitution = A5G; value = 760 nM
Substitution = L364G; value = 611 nM
Substitution = P430G; value = 446 nM
Substitution = F184V; value = 588 nM
Substitution = G219A; value = 817 nM
Substitution = P493G; value = 693 nM
Substitution = Y54V; value = 609 nM
Substitution = E86G; value = 516 nM
Substitution = F184G; value = 3.07 µM
Substitution = P149V; value = 3.47 µM
Substitution = I373G; value = 525 nM
Substitution = N361G; value = 748 nM

Sample 3
Target: Prothrombin, mature alpha-thrombin (F2, Homo sapiens, UniProt P00734)
Technique: aptamer microarray, sandwich
Molecule type: DNA with 2'F-ANA
Sample: in vitro
Concentration: 200 nM
Notes: whole 15-mer aptamer, many near background
Added: Cy3 exosite-II aptamer, 400 nM
Reading: higher = stronger binding
Endpoint: mean fluorescence intensity
Sequence: GGTTGGTGTGGTTGG
Modification = 2'F-ANA at 1 3 6 9 10 11; value = 72.8 a.u.
Modification = 2'F-ANA at 2 3 9 11 12 15; value = 1040 a.u.
Modification = 2'F-ANA at 1 3 4 7 8 9 13 14; value = 68.4 a.u.
Modification = 2'F-ANA at 3 5 6 7 9 10 11 13; value = 51.8 a.u.
Modification = 2'F-ANA at 1 2 5 6 7 9 11 12 13 14; value = 54.2 a.u.
Modification = 2'F-ANA at 2 4 5 13 15; value = 52.4 a.u.
Modification = 2'F-ANA at 4 5 8 9 13; value = 72 a.u.
Modification = 2'F-ANA at 1 3 4 5 7 9 10 12 14; value = 51.5 a.u.

Sample 4
Target: CCND2, cyclin fold, Cln2 fusion (human)
Technique: yeast growth competition, sequencing
Sample: yeast
Notes: weak parent motif
Relative to: not given
Reading: higher = stronger binding
Endpoint: normalised enrichment score
Parent: viral docking peptide; KGVKRKLFAEDSS; partner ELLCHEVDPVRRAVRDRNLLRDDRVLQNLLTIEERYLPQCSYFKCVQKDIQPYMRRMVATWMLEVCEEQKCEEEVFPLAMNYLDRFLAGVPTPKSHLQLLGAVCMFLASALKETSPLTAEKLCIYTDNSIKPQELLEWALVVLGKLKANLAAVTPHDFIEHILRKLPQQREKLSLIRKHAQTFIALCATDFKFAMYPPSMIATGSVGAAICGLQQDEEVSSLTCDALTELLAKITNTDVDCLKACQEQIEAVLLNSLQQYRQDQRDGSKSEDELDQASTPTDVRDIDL
Substitution = KGQKRKLFAEDSS [V3Q]; value = -0.11
Substitution = KGVKRKHFAEDSS [L7H]; value = 0.128
Substitution = KGVKRKLFWEDSS [A9W]; value = -0.266
Substitution = KGVKRKQFAEDSS [L7Q]; value = 0.117
Substitution = KGVKRKLFKEDSS [A9K]; value = -0.0393
Substitution = KGVKRKLTAEDSS [F8T]; value = -0.408
Substitution = KEVKRKLFAEDSS [G2E]; value = 0.0922
Substitution = KGVKRKLFAEDIS [S12I]; value = 0.17
Substitution = KGMKRKLFAEDSS [V3M]; value = -0.502
Substitution = KGVKRKLFVEDSS [A9V]; value = 0.342
Substitution = KGVKRKDFAEDSS [L7D]; value = -0.067
Substitution = KGVKRKLFAQDSS [E10Q]; value = -0.236
Substitution = KGVKRKLFAEDES [S12E]; value = -0.117
Substitution = KGVKRKLFAEMSS [D11M]; value = -0.328
Substitution = KGVKRDLFAEDSS [K6D]; value = -0.285
Substitution = KGRKRKLFAEDSS [V3R]; value = -0.159
Substitution = KGVKRKLCAEDSS [F8C]; value = 0.308
Substitution = KGCKRKLFAEDSS [V3C]; value = -0.0405
Substitution = KGVKRKLFMEDSS [A9M]; value = 0.194
Substitution = KGVKRKLFNEDSS [A9N]; value = -0.165
Substitution = KGVKRKLFAELSS [D11L]; value = -0.215
Substitution = KGVKHKLFAEDSS [R5H]; value = -0.04
Substitution = KGVKRKLMAEDSS [F8M]; value = 0.0495
Substitution = KGVMRKLFAEDSS [K4M]; value = -0.798
Substitution = KGSKRKLFAEDSS [V3S]; value = -0.156

Repeated from above (sample 4):
Substitution = KGVKRDLFAEDSS [K6D]; value = -0.285
Substitution = KEVKRKLFAEDSS [G2E]; value = 0.0922
Substitution = KGVKRKLCAEDSS [F8C]; value = 0.308
Substitution = KGVKRKLFMEDSS [A9M]; value = 0.194
Substitution = KGVKRKDFAEDSS [L7D]; value = -0.067
Substitution = KGVKRKHFAEDSS [L7H]; value = 0.128
Substitution = KGVKRKLMAEDSS [F8M]; value = 0.0495
Substitution = KGVKRKLFKEDSS [A9K]; value = -0.0393
Substitution = KGVKRKLFVEDSS [A9V]; value = 0.342
Substitution = KGVKRKLFNEDSS [A9N]; value = -0.165
Substitution = KGVKRKLFAEMSS [D11M]; value = -0.328
